Measurements from different studies.
Parts stem from different laboratories: compare values within a part only.

Set 1 — technique: RNA Bind-n-Seq; form: RNA; medium: in vitro; concentration: 20 nM; notes: 6-mer, flanks averaged, single round; together with: 150 mM LiCl; baseline: input library; reading: higher = stronger binding; endpoint: 6-mer enrichment (R)
Target: TAR DNA-binding protein 43, full length, His tag (TARDBP, Homo sapiens, UniProt Q13148, residues 1-414)
AGUUCU: 0.869
GCCUUG: 1.23
GAUGGG: 1.26
CAGCUG: 0.891
GUUCAU: 0.934
UCGCUG: 0.891
GGGUAU: 1.19
UCUGAG: 0.891
GCACGU: 0.936
CCUGGC: 0.935
GCCUCU: 0.947

Set 2 — technique: competition protein-binding microarray; form: double-stranded DNA, one strand shown; medium: in vitro; concentration: 2 µM; together with: Cbf1 competitor, 0.05 µM; reading: higher = stronger binding; endpoint: fluorescence intensity; all sequences stand within: … GTCTTGATTCGCTTGACGCTGCTG
Target: Phosphate system positive regulatory protein PHO4, full length, GST-tagged (PHO4, Saccharomyces cerevisiae, UniProt P07270, residues 1-312)
Notes: whole 60-bp probe, lowest competitor level
Construct (chain): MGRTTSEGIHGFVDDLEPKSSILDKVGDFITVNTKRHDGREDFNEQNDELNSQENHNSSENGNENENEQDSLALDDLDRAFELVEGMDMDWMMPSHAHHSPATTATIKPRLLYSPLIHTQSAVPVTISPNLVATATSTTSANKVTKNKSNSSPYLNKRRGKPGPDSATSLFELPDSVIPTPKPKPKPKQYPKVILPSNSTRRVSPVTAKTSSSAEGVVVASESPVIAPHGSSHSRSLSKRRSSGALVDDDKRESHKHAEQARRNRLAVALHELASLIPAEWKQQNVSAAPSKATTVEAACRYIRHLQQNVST
GCTTTGGCATATTGCCACATGCGAATGTACATGTCC: 9710 a.u.
TGGCTACTTCGTCACCACGTGGGTACGTATCCGGAA: 18100 a.u.
CTTCTGTAAATTTGTCAAGTGGGTGGACGCGCCCCG: 3860 a.u.
GTCTTGTCTCATTGGAACGTGGGTGTCCCCACTTCA: 14500 a.u.
CTATGATCTTGTATTCATGTGATTGTAAATAATATT: 5850 a.u.
CTTTCCCGATCTTTTCACGTGTGATTAGCACATTTG: 12100 a.u.
TTGGATGCTTTGGACGACGTGATGGACCATTTGGAA: 4770 a.u.
CTTTCCCGATCTTGTCACCGCACTTTAGCACATTTG: 4190 a.u.
TTACATGTAGGTAGCTTCGTGCCAGAACGCAAGGGT: 7900 a.u.

Set 3 — technique: universal PBM; form: double-stranded DNA, one strand shown; medium: in vitro; concentration: 600 nM; reading: higher = stronger binding; endpoint: E-score
Target: Sal-like protein 4, full length isoform A (SALL4, Homo sapiens, UniProt Q9UJQ4, residues 1-1053)
Sequence of UniProt Q9UJQ4 (whole entry, looked up): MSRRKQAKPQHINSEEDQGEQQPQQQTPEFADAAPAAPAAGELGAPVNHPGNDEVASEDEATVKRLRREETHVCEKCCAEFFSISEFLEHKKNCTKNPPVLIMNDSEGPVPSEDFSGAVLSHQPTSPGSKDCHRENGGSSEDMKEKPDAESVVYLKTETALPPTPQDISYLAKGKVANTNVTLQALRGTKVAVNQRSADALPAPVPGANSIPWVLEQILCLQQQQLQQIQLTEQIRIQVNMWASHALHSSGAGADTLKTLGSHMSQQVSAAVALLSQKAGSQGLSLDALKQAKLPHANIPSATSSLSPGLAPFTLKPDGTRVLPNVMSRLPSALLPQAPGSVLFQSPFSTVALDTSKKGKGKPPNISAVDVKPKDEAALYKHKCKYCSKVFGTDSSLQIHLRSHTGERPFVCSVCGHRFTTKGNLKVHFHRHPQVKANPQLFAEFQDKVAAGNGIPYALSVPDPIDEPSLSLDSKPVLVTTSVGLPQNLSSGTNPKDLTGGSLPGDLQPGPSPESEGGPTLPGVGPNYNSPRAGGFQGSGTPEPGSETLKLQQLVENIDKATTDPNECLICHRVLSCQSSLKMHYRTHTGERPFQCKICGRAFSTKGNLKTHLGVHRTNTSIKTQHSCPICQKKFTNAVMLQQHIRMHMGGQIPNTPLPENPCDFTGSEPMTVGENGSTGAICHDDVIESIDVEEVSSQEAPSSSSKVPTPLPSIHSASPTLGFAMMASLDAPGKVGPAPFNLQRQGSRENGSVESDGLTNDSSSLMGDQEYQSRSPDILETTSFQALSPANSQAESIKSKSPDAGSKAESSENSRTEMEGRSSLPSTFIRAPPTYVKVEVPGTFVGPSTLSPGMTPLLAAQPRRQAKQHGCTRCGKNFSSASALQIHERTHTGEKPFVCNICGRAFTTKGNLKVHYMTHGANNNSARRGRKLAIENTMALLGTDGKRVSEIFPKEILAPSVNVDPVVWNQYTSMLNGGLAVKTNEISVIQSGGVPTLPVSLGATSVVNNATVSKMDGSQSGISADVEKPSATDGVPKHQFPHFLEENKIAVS
Notes: 8-mer, flanks averaged, mean of replicates
AAACGTGA: 0.184
AGCCTACC: -0.204
CTTGGGAC: -0.215
ACATTAGA: 0.185
GATGTTAA: 0.141
CATCTGTC: -0.105
CCGCAGCG: -0.325
GCAGTTAC: 0.0736
ACTGCTGG: -0.179
CATGAACG: -0.0602
ATAACAGA: 0.287
AATCGTGA: 0.0729
AGCACACG: -0.156
CCCGGAGG: -0.456
AAAGTGTG: 0.0635

Further values, each from its own experiment
PhoQ, residues 284 288 289 292 302 303 SLANIV — fold induction (PhoP, residues 12 14 15 18 19 VQALL (Escherichia coli, UniProt P23836); Sort-seq, item: YFP reporter; E. coli; PhoQ-PhoP variant library, together with: 10 µM Mg2+; baseline: high Mg2+ state, higher = stronger signaling): 14.9

Repeated from above (set 3):
AAAGTGTG: 0.0635
GCAGTTAC: 0.0736
